Published values from different studies.
A part holds a random share of what one study measured. Changes are numbered by the printed parent chain.

Study 1
Target: CRIPT, C-terminal peptide
Method: DHFR complementation, deep sequencing
Matrix: yeast
Notes: single substitutions, model-inferred values
Baseline: wild type
Reading: higher = weaker binding
Measurement: binding free energy change
Parent: ERBIN, PDZ domain 1 (human); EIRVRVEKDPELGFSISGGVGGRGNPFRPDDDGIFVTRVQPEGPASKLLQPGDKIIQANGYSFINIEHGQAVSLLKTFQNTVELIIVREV; partner TKNYKQTSV
F63L: -0.207 kcal/mol
D32K: 0.476 kcal/mol
I16P: 0.402 kcal/mol
K54N: 0.272 kcal/mol
P41R: 0.251 kcal/mol
L12V: 1.38 kcal/mol
A71H: 1.31 kcal/mol
P44Y: 0.705 kcal/mol
S15G: 1.27 kcal/mol
R28Y: -0.00806 kcal/mol
E11W: -0.565 kcal/mol
V90Q: -0.0383 kcal/mol

Study 2
Target: NFE2L2, bZIP domain (human)
Method: DHFR protein complementation
Matrix: yeast
Notes: single substitutions, most at no-binding floor
Baseline: wild-type JUN-FOS pair
Reading: higher = stronger binding
Measurement: binding fitness
Parent: JUN, bZIP domain (human); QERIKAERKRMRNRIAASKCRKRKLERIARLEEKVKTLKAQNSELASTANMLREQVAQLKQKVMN; partner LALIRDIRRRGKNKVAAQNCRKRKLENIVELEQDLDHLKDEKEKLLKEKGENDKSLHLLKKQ
S43F: -1.42 natural log
R30L: -1.42 natural log
V35Q: -1.34 natural log
L45R: -1.49 natural log
A29E: -1.52 natural log
L38M: -1.19 natural log
E54Q: -1.62 natural log
A57R: -1.19 natural log
Q41L: -1.25 natural log
N42V: -1.43 natural log
L31S: -1.48 natural log
L31W: -1.36 natural log
K34P: -1.51 natural log
E32M: -1.2 natural log
R30C: -1.27 natural log
A29D: -1.42 natural log
Q41A: -1.5 natural log
K36T: -1.51 natural log

Study 3
Target: Centromere-binding protein 1, full length, His-tagged (CBF1, Saccharomyces cerevisiae, UniProt P17106, residues 1-351)
UniProt P17106, sequence (whole entry, looked up): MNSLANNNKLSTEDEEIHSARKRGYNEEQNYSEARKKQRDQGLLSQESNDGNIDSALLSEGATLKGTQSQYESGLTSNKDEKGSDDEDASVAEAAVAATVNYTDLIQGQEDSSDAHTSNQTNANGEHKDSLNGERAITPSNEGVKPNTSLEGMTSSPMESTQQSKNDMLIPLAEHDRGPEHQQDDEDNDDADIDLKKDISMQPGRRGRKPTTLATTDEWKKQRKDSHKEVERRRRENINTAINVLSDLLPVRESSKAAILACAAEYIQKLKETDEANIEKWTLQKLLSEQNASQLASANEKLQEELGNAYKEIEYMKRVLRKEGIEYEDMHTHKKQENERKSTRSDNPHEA
Method: competition protein-binding microarray
Molecule type: double-stranded DNA, one strand shown
Matrix: in vitro
Tested at: 2 µM
Notes: whole 60-bp probe, lowest competitor level
Together with: Pho4 competitor, 0.05 µM
Reading: higher = stronger binding
Measurement: fluorescence intensity
Constant ends, left off below: … GTCTTGATTCGCTTGACGCTGCTG
CAAAATCTTACCAGAAACGTGCTTTCTTCTGGCTTC: 142 a.u.
CATACCCAACCTTGAGTTGTGGGTGAAGATATTTGT: 68.9 a.u.
TCTGACCCCGATCCGCACGCTACTGCGTCGTCGATC: 51.6 a.u.
ACAAATTTAGTATCTCACGTGTATACAATTGCTCTG: 2010 a.u.
CTTTCCCGATCTTGATTGGTGGGTGTAGCACATTTG: 63.6 a.u.
TTCCTAAAGGAGCCCGGCGTGCCAGCCATCAGAATT: 59.6 a.u.
GCTAGAGAGTTTCACCACGTTAATGGACTGAACCTT: 80.8 a.u.
AAAGCGGTAATTTGTCACATTACTTCACATATCTAT: 118 a.u.
AAATTACTAAGTTGAGCCGTGGGTGACGCCGTATGA: 59.4 a.u.
CGGGGTTAAGTTTGGACCGTGGGTGGCTTGCAGCAG: 64 a.u.
TCACAGTATTTTTTTCACGTGCTTTTTTTTCAAGGC: 2200 a.u.
GTCTTGTCTCATTGTCCTGTGGGTGTCCCCACTTCA: 89.9 a.u.
TGCGCAACAACTTGGGAGGTGGGTGTATGTCTAGAA: 61.6 a.u.
ATATCTATGGACGTCTTCGTGCCAGAAAGCGGCGAA: 81.9 a.u.
TCGGTTTCAAATTGTCATGCTCCGGAGTAATTGACT: 102 a.u.
TTAGCTCTGCTGCATTTGCTGTTCGTTTAGTAAAAA: 65.7 a.u.
CCCCACTCCCGCGAGCACGTGCGCGTCCTCGCTGCT: 1980 a.u.
AAAATATTCATTTTGCACGTTTCAATGCTTGACAGA: 162 a.u.
CCTCCTCCAGTTGAACACATGCAAGGTCGCCCACCA: 111 a.u.
CAGAAACCAACGATGCATGTGTGGGTTTGCATATGA: 82.6 a.u.

Study 4
Target: RNA binding protein fox-1 homolog 2, RRM domain, GST-SBP tag (RBFOX2, Homo sapiens, UniProt O43251-10, residues 100-194)
Method: RNA Bind-n-Seq
Molecule type: RNA
Matrix: in vitro
Tested at: 365 nM
Notes: natural RNA segment, single round, ends assumed
Baseline: no-protein control
Reading: higher = stronger binding
Measurement: RBNS enrichment (R)
Constant ends, left off below: GGGAGUUCUACAGUCCGACGAUC … UGGAAUUCUCGGGUGCCAA
Construct (chain): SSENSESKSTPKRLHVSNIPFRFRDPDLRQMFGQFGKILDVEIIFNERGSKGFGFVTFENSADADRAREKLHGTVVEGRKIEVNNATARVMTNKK
UGCCUUCCUUGUUCUGGUGGAGCUGGGGUUUCUCUCCUCCCCAGUCCCACAACACUGCCAAAAAUCUGUGUAUGUGCCAUUGGGUGGGGCAGCCCCAAGCCUCCUGGGGA: 0.796
UGUCAGCAGCACAACACAAUCUAUAUGACUUUCUCUUUUGCACUUCACUUGUGUAUUUUACAGUGGUAGUAAAAUAUGUCUUCAACUGAUCAUUGCACUUAAAAUAUUAA: 0.873
UUGCAGAGGUAUGUCAUUGGUUCUUAAACUGUCAAAAAUAAAGAUGUACAAAAACAGACUUAAAAGGCAACUUUUUUCAAUGGUACAGUAUAUUUUAAACACACAGCCUU: 0.307
GGUGGCCGUCAUUGGGAAAGCAUCGAGAAAGAGGCGAGCUUUGCAUCUGUCCCUUGACAGGGAAGGUAGGCUUCUGGCUAGCAGAGCAGGUGACACAAACCAGUUUAUUG: 0.295
AGUCCUGUGAGGCCCCUGAAGCUCUGUGAGGCCCCUGAAGCUCUGUGAACCCCCUGCAGCCCUGUGAGGCCCCCCGAAGCCCUGUGAGGCCCCCCGAAGCCCUGUGAACC: 0.453
CCGGACCCCGUUGUGAGCCGGCCUCCUGUCUGCAUGCCCCCUGUGGCCACCAGGCUCCGAGGGGCCGUGGUGACUCUUGAUCAAAGAGCACAGUGAACUGUCCCUUCUGA: 7.58
UAAUUUUUGAAGAAUAUCACAAAGUUGCUAUUAUGGUAAACUAGUUUCACACUUCAGCAAACAUAAGGAGGACAGCUUUGUUAAUAGCUAAAAAGUACAAAUUAAAAGAU: 0.303
GAAAGGGACAGAUAGCUUUCCAAGGACAUGAGACUGUGCAAAGCCUCUUUGCUGUUUCUCUGGGCUCCUGAGCAUACCAGGGGAAGUUCUAGAAACCGCAGCUGACAUCU: 0.289
GCCCUUGCCCUUGGAGCUGCCGUGCCUGUGUCCUGAUGGCCCAAAUGUCAGGGUUCUGCUCGGCUUCUUGGACCUUGGCGCUUAGUCCCCAUCCCGGGUUUGGCUGAGCC: 0.481
UAGUAUUUUUGUUUCGUUUUGUUUUUAAAUUGGAGCCCCUGGUGAGGUUACAUGUGCCAUGAGAACCCACUCUACACCAUAGUGCUGGUGCCUCAGUGUUGGCCAAACUC: 0.632
CACACAGUAAAUGUUUAUUAAUAGUCAUGGUUCGUAUUUUAGGUGACUGAAAUUGCAUCAGUGAUCAUAAUGAGGUUUGUUAAAACGAUAGCUAUAUUCAAAAUGUCUAU: 0.494
GGGCACCUGGCUCAAUCUUGUAACUGCCUGCUAGCCAUAGAUUCCUUUCAGCCUUGCUGACUUCUCCCUAUAAAAGUAAAGCCUUUUUCUGCCCCAGCUCUGAGACACUU: 2.13

Study 5
Target: CCNB3, cyclin fold, Cln2 fusion (human)
Method: yeast growth competition, sequencing
Matrix: yeast
Notes: weak parent motif
Baseline: not given
Reading: higher = stronger binding
Measurement: normalised enrichment score
Parent: INSM1 docking peptide (human); PKAIRKLHFEDEV
PKAIRKLYFEDEV [H8Y]: 0.437
PKEIRKLHFEDEV [A3E]: 0.376
PKAIRKLNFEDEV [H8N]: 0.636
PKAIRKLHFEDDV [E12D]: 0.643
PKGIRKLHFEDEV [A3G]: 0.469
PKAIRKLHFELEV [D11L]: 0.293
PKAIRKCHFEDEV [L7C]: 0.172
PKAIRKLHFEDTV [E12T]: 0.367
PKHIRKLHFEDEV [A3H]: 0.436
PKAIRKLHFEDHV [E12H]: 0.796
PGAIRKLHFEDEV [K2G]: 0.379
PKAIRVLHFEDEV [K6V]: 0.493
PKAIKKLHFEDEV [R5K]: 0.107
PKAFRKLHFEDEV [I4F]: 1.04
PKAHRKLHFEDEV [I4H]: 0.0286
PKIIRKLHFEDEV [A3I]: 0.243
PKAIRELHFEDEV [K6E]: 0.0589
PKAIRMLHFEDEV [K6M]: 0.432
PKAIRCLHFEDEV [K6C]: -0.18
PKKIRKLHFEDEV [A3K]: 0.269
PKAIRKDHFEDEV [L7D]: -0.501
PKAIRKLHFRDEV [E10R]: 0.105
PKAIRKLHFIDEV [E10I]: -0.00588
PKAIRALHFEDEV [K6A]: 0.149
PKAIRKLHFDDEV [E10D]: 0.226

Excerpt of the above (study 1):
I16P: 0.402 kcal/mol
A71H: 1.31 kcal/mol
R28Y: -0.00806 kcal/mol
D32K: 0.476 kcal/mol
P44Y: 0.705 kcal/mol
S15G: 1.27 kcal/mol
P41R: 0.251 kcal/mol
E11W: -0.565 kcal/mol
V90Q: -0.0383 kcal/mol
F63L: -0.207 kcal/mol
K54N: 0.272 kcal/mol
L12V: 1.38 kcal/mol
